Experimental data pooled from the literature.
Numbered parts are unrelated; each lists some results of a single study. Substitutions count along the parent as printed.

Set 1 — technique: RNA Bind-n-Seq; form: RNA; sample: in vitro; tested at: 100 nM; reference: input RNA pool; reading: higher = stronger binding; quantity: bound/input enrichment
Target: RING finger protein unkempt homolog, zinc fingers 1-6, SBP tag (UNK, Homo sapiens, UniProt Q9C0B0, residues 30-357)
Sequence of UniProt Q9C0B0 (30-357, looked up): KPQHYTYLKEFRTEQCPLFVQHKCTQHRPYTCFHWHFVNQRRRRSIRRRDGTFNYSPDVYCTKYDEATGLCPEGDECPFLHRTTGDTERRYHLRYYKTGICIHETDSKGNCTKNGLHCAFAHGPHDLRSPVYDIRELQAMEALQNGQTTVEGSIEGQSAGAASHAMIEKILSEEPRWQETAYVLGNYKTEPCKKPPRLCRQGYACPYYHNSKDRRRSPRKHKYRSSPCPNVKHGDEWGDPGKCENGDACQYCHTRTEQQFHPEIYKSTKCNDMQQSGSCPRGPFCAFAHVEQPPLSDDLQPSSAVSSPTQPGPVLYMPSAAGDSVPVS
Notes: RNA with constant flanks, vertebrate orthologous sites, ends assumed
Constant ends, left off below: GGGAGUUCUACAGUCCGACGAUC … CAACAGAGGAUUGAGCAUCA
Sequence = AUUCAGAAUUAUAGCAAGAGCCAAGCAGUAGCAUUGUUUCUCCAUAAAUGUAGAAAUAAUUAGAUCCAGAUUGUUUCCUUAUUCAGUUUCAAAAAUAAAAAAUACCUCAGUGCUAUGUUU; value = 1.02 ratio
Sequence = CCCUUUUGUUUUUGUUUUGUUGUUUUUUUAGUUUAGUGUUUUUAUUUUUAAUCUUUUUGGUAGUUGUUGUUACCCACGCCAUUUUACGUCUCCUUCACUGAAGGGCUAGAGUUUUAACUU; value = 10.1 ratio
Sequence = CCAGUUUGUAUGUACAUUACUCAUAUUCCUCUCUGUUUUGUUGGGAAAAAAAAAGACAUUUUAACCUUUUUUAAGGUUGUUGAUUUAAUUUCAUGUUAUUAGGUUGCAUGAUGUUGCCCU; value = 0.23 ratio
Sequence = ACAGAGGCACUUUCUCCUUCGGUCUUUCAUUGUAAGAAGAAAUGGACCCAUGCACAUUUAUAUAGCUUUCUAAUAGCAUUAAAACCAAUGCCUUUUUAGACUCCUAUUUUUGAUGUAUAU; value = 0.417 ratio
Sequence = AUGUACUUAGAAAAGAAUUCUCCUUCAUCUUCCCAUGGUGAAAUUCUCUAGCAUUGUAUUUAGAUUCUGGAUUUUUAUAAUUCAUGCUUAAUGUAUUAGACAUUUUUAGCCCAUAAUUAA; value = 1.3 ratio
Sequence = CAUCUCUCAUUUUAUAUAUCCAAAAAUGGCUUUGAAUUUUUAAAGAAUUGCUAUUUUAAUUAGUUUUGCCCUCAUGAGGUAUUAUUAUAGUUUACCACAAACAGAUAUCUGUCUGAAUUA; value = 1.08 ratio
Sequence = CCCUCUUAAUCCCAUAUCUUCUGUUUCAUAGUACUGAAGUCUUAUCUUCAGUUACUAUAUUAGUGACCUUAUUUUAAUUUUAGAGAAACCCUCAGCAUGGAUACUGUGAGCUUACGUGGA; value = 8.45 ratio
Sequence = AAAUUUAUUUCAUGCCCUGGACUCCCUAUCGUACUGAUACUUUAAUAGAAUAUGCUUCUUUAGAAGAUUUUCAAAAUAGUCGCCAAACAACAACAUAUAAACUUCCAAAUCGAGUAGAUG; value = 1.07 ratio
Sequence = UACCUCCUGAACUUCUAGCUUUCAAGUUGUGGCUGUUUUAGAUACUGGUUUUCUUUUCUUUAGAAUUUUUCCCUGUUUCCCACCUUCUCUUCCCCUGUUCCCAAGGUCUGACUCAUGGAU; value = 1.64 ratio
Sequence = GUUAAAUGUGUGUCAAAUGCUGGAUGUAAUGUUAAACCGUCAUUUAGAAUAGAUGUUAAUUUGUUAUGAUUAAGCUACAAAUAGGUUUCCUUAAACCAGAGAUGCACCGCCCUUGUCUGA; value = 0.544 ratio
Sequence = UCAAUCAUGGAGAAAAAUAUAUUAAAAUAAUUCACGGCACUGAUGUUAAUUCUAGUCUGUUGGUUUUAUAAAAGUUAGGGUUCUUAUUUAGGAACAACAGGAAGUGACUGUUAAAGAGAA; value = 0.71 ratio

Set 2 — technique: DHFR PCA, deep sequencing; sample: yeast; with: (+)-ABA 2500 µM; reference: wild-type fitted maximum; reading: higher = stronger binding; quantity: relative binding score
Target: ABI1, truncated, D143A, DHFR fusion (Arabidopsis thaliana)
Notes: methotrexate growth selection, single substitutions
Parent: PYL1, truncated, DHFR fusion (Arabidopsis thaliana); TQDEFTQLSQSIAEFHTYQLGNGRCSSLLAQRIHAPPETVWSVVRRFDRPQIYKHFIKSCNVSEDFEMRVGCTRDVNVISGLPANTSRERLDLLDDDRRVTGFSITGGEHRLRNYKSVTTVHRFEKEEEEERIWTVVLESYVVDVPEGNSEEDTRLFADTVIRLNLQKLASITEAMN
Change = V118E; value = 27.9%
Change = I162E; value = 13%
Change = Y18D; value = 89.4%
Change = P50R; value = -4.06%
Change = Y18N; value = 107%
Change = D144Q; value = 86.9%
Change = K58M; value = 94%
Change = S27E; value = 80.8%
Change = F157V; value = 90.9%
Change = V44C; value = 84.5%
Change = A30Y; value = 96%
Change = E127V; value = 103%
Change = L91T; value = -0.0714%
Change = E139W; value = 93.9%
Change = T173G; value = 90.4%
Change = V137P; value = -15.4%
Change = Q31A; value = 73.3%
Change = T17K; value = 102%

Set 3 — technique: protein-binding microarray; form: double-stranded DNA, one strand shown; sample: in vitro; tested at: 2200 nM top; notes: 60-bp whole probe; with: salmon DNA 0.4 mg/ml; reference: random background probes; reading: higher = stronger binding; quantity: fitted relative affinity; constant ends, left off below: GCCTAGCAC … GTCTTGATTCGCTTGACGCTGCTG
Target: Interferon regulatory factor 7, full length, phosphomimetic (IRF7, Homo sapiens, UniProt Q92985, residues 1-503, S471D/S472D/S475D/S476D/S477D/S483D/S484D/S487D)
Sequence of UniProt Q92985 (whole entry, unmodified, looked up): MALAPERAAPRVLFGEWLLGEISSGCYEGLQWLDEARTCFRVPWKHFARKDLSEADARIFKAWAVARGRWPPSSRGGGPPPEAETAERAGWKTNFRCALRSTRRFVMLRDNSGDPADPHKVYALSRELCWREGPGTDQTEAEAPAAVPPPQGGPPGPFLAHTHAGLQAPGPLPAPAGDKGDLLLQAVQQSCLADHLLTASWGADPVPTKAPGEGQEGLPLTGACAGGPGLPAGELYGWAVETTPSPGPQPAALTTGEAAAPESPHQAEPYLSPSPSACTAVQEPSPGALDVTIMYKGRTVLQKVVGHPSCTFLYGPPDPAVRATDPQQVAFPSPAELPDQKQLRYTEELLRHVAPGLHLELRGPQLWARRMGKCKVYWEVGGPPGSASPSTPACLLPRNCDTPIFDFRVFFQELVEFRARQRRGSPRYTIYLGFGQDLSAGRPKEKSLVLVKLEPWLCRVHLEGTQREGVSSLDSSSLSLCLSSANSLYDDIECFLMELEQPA
Sequence = GACTGTTCCCTTTTCCTGACGTGCTAG; value = 2.91 z-score
Sequence = GACCGACTGGACTATCGGGACGTGCTA; value = -0.149 z-score
Sequence = GACGGTTTCGGACTGGGCACGTGCTAG; value = 3.52 z-score
Sequence = TGTGTCTGGAATTTTTAGAAGTGCTAG; value = -0.0682 z-score
Sequence = TCCCCTCTAGGTTCTCTGAAAGTGCTA; value = 0.622 z-score
Sequence = GACGGACTGCTTAACCTGACGTGCTAG; value = 0.0762 z-score
Sequence = GACCGTATCGGGTATCGGGACGTGCTA; value = 0.127 z-score
Sequence = TTAGAACTGATACTGGATTAGTGCTAG; value = -0.474 z-score
Sequence = TCATGTTTCTGTGTCACACTGTGCTAG; value = 2.48 z-score
Sequence = TTAGGTCTCCTACAGCTTTAGTGCTAG; value = 0.165 z-score
Sequence = GACGGTTTCATTTCCCTGACGTGCTAG; value = 5.1 z-score
Sequence = GACGATTGCGGGTATCGAGACGTGCTA; value = 0.333 z-score
Sequence = GCCGATTTCAGTATCGAGACGTGCTAG; value = 1.75 z-score
Sequence = GACGATATCAGTATCCAGACGTGCTAG; value = 0.445 z-score
Sequence = AGTATGAGTTGCCCTTTCCCGTGCTAG; value = 0.864 z-score
Sequence = GACGGTTACGGTTTCGGGACGTGCTAG; value = 3.57 z-score
Sequence = GGCGGACTGGACTATCGGGACGTGCTA; value = -1.31 z-score
Sequence = TTAGATATCGGGTACCGATTAGTGCTA; value = -0.385 z-score
Sequence = TTAGGACTGCTTATCATTTAGTGCTAG; value = 0.111 z-score
Sequence = TGAGATATCAGTCTCGATTAGTGCTAG; value = -0.055 z-score
Sequence = CTGCCTGTCCATTCCTTCCAGTGCTAG; value = 1.66 z-score
Sequence = ACACTACCTGACTTCAAACTGTGCTAG; value = 1.18 z-score
Sequence = GACGGTCTCCTTCTCCTGAAGTGCTAG; value = 0.766 z-score

Set 4 — target: CCNA1, cyclin fold, Cln2 fusion (human); technique: yeast growth competition, sequencing; sample: yeast; notes: weak parent motif; reference: not given; reading: higher = stronger binding; quantity: normalised enrichment score
Parent: BRCA2 docking peptide (human); PSIKRNLLNEFDR; partner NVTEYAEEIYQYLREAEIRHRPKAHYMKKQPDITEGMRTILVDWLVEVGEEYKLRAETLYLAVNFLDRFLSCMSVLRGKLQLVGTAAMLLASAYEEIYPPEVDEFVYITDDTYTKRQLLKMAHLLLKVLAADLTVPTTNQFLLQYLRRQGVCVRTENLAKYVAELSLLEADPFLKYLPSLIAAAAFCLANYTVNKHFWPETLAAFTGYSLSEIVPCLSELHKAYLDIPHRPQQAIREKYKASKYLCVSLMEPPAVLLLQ
Change = PSIKRNLLNEYDR [F11Y]; value = 0.503
Change = PSIKRNLLNETDR [F11T]; value = 0.438
Change = PSIKRRLLNEFDR [N6R]; value = 0.252
Change = PFIKRNLLNEFDR [S2F]; value = 0.304
Change = YSIKRNLLNEFDR [P1Y]; value = 0.753
Change = PSIKRNLLNEFNR [D12N]; value = 0.645
Change = PSIKRNLLNEEDR [F11E]; value = 0.0698
Change = PSIIRNLLNEFDR [K4I]; value = -0.0469
Change = PSIKRNLLNEFTR [D12T]; value = 0.612
Change = PSIKCNLLNEFDR [R5C]; value = 0.427
Change = PSIKRNLLIEFDR [N9I]; value = 0.573
Change = PSIKRNLLPEFDR [N9P]; value = 0.721
Change = PLIKRNLLNEFDR [S2L]; value = 0.73
Change = PSIKRNLLNEFIR [D12I]; value = 0.103
Change = PSIKRNNLNEFDR [L7N]; value = 0.176
Change = PSIKRNLLNEFDD [R13D]; value = 0.333
Change = PSLKRNLLNEFDR [I3L]; value = 0.433
Change = PSIKRPLLNEFDR [N6P]; value = 0.707
Change = PAIKRNLLNEFDR [S2A]; value = 0.419
Change = TSIKRNLLNEFDR [P1T]; value = 0.34
Change = PSIKRNLLNEFWR [D12W]; value = 0.789
Change = NSIKRNLLNEFDR [P1N]; value = 0.591
Change = PSIKRNLWNEFDR [L8W]; value = 0.144
Change = PSIKRNFLNEFDR [L7F]; value = 0.293
Change = PSIKRNLLNEADR [F11A]; value = 0.692

Set 5 — technique: protein-binding microarray; form: double-stranded DNA, one strand shown; sample: in vitro; tested at: 0.8 µM; notes: whole 60-bp probe, no competitor; reading: higher = stronger binding; quantity: fluorescence intensity; constant ends, left off below: … GTCTTGATTCGCTTGACGCTGCTG
Target: Centromere-binding protein 1, full length, N-terminal tag (CBF1, Saccharomyces cerevisiae, UniProt P17106, residues 1-351)
Sequence of UniProt P17106 (whole entry, looked up): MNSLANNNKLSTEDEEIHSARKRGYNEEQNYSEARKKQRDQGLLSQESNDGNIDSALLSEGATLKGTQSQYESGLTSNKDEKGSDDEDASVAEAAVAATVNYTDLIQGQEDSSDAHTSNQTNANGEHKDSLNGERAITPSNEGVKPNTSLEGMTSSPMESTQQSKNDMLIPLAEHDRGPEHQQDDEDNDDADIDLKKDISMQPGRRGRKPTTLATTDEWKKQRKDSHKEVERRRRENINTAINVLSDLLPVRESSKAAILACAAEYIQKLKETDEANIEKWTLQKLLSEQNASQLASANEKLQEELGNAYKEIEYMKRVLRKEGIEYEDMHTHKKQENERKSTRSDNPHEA
Sequence = CTAATGCCCCCCTCAGGTGTCGTTAAATAAGCTTTC; value = 518 a.u.
Sequence = CCTAACTACTATAAACACGTTTGATAGCTTCGTACA; value = 580 a.u.
Sequence = GAACTCTGCGCAGTGCACGTTCAAAAGAAAAGCTAG; value = 585 a.u.
Sequence = GAAATTAATGTTTATTTCATGAGACTAGTCAAATAG; value = 550 a.u.
Sequence = CTACATCTCTTCTTCATCACCACGATGTATCTTTTC; value = 573 a.u.
Sequence = CTAAAGTTAGTTTTTCTGCTGATATATATCTTTTTC; value = 499 a.u.
Sequence = CTACATGCCAATTCGCACGTGACTTGAAACTATTTC; value = 16800 a.u.
Sequence = CTAAGTTTACATGAAGATGTGACCAATGAGGAGTTC; value = 588 a.u.
Sequence = CCTAACTACTATAACTTCATGACATAGCTTCGTACA; value = 558 a.u.
Sequence = CTACCCTTTTTCTATCACGAGGTTACTGAGCCATTC; value = 2400 a.u.
Sequence = GAAATTATCATACATGATGCAAAAATACTTTATTAG; value = 559 a.u.
Sequence = GAACCTTCTAGATGCCATCAGTTGTTAATAGTATAG; value = 525 a.u.
Sequence = GAAAAAAATGCGGGTCACGAAAGGGGTACCGAGTAG; value = 578 a.u.
Sequence = CTATAGGAGTATAAGAGCGTGGGGAAACACAAATTC; value = 487 a.u.
Sequence = CTAAACACGAGATATTGCATGACCTCCACACACTTC; value = 632 a.u.
Sequence = CTATTGTGGTGATTTCACGCTTATGTACACGGGTTC; value = 646 a.u.
Sequence = TGTACGAAGCTATTGCTGGTGACTATAGTAGTTAGG; value = 531 a.u.
Sequence = CTACTTAAACTACTCCTCGTGCTGTCCACATTTTTC; value = 638 a.u.
Sequence = CCTAACTACTATACGCACGTATAATAGCTTCGTACA; value = 493 a.u.
Sequence = CTAGACAAGTAAATGAACGTGCTGCAATAAACCTTC; value = 637 a.u.
Sequence = GAAGGGAATGTGGAGTATCTGATGTAACACTGTTAG; value = 514 a.u.
Sequence = CTAGTTTATTGAGGTCATGAGGCTGGAAGAAAATTC; value = 918 a.u.
Sequence = CTATTCGCGGCGTTACACGTGAGTTCATATTATTTC; value = 3650 a.u.
Sequence = CTATTAGGTTTGTGTCACGTGATACGTCCTTTTTTC; value = 44000 a.u.
Sequence = GAACGGCCAATGTGACACCAGTTCACTCGGCAATAG; value = 629 a.u.

Repeated from above (set 2):
Change = T17K; value = 102%
Change = Y18N; value = 107%
Change = V44C; value = 84.5%
Change = P50R; value = -4.06%
Change = Q31A; value = 73.3%
Change = K58M; value = 94%
Change = I162E; value = 13%
Change = A30Y; value = 96%
Change = E127V; value = 103%
Change = V118E; value = 27.9%
Change = V137P; value = -15.4%
Change = T173G; value = 90.4%
Change = E139W; value = 93.9%
